Measured values collected from several papers.
Every numbered part comes from another study and shows a few of its results, in no order. ± gives the spread as reported.
Sequence of UniProt P16257 (whole entry, looked up): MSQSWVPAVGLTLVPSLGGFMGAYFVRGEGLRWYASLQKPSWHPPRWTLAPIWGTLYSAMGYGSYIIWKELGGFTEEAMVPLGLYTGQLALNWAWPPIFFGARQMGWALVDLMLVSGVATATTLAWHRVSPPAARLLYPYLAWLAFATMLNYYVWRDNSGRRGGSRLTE

Set 1 — species: human; sample: microsomes or S9; tested at: 2 µM; time: 0.5 h
The remaining compound of `CS(=O)(=O)C1(C(=O)NC2CCCS(=O)(=O)C2)CCCC1` (centres unmarked) is reported as 50.1%.
For `CN(CCO)S(=O)(=O)c1ccc2c(c1)oc(=O)c1cc(S(=O)(=O)N(C)CCO)ccc12`, the remaining compound was 20.5%.
`Cc1ccc(CC2S/C(=N/N=C/c3ccncc3)N(Cc3ccco3)C2=O)cc1C` (centres unmarked) gave a remaining compound of 27.9%.
With `O=C1C(N2CCC3(CCOCC3)C2)CCN1c1cccc(Cl)c1` (centres unmarked) the remaining compound was 51.1%.
With `COc1ccc(Cl)c(OC)c1C1=NOC(C)(C(=O)Nc2ccccn2)C1` (centres unmarked) the remaining compound was 41.3%.
`O=C(NCCN1CCCCC1)c1cc2ccc3ccccc3c2o1` gave a remaining compound of 74.1%.
`O=C1Nc2ccccc2CCC1n1cnc2ccsc2c1=O` (centres unmarked) gave a remaining compound of 82.5%.

Set 2
SMILES: CC(C)n1cnc(-c2ccc(F)cc2)c1-c1ncc(C(=O)Nc2ccc(N3CCN(C)CC3)cc2)[nH]1
Phase 2a trial, measured: hypercholesterolaemia; human, idiopathic pulmonary fibrosis; 30 mg once daily, grade 5 — “patients with adverse event”: 0%.
For Phase 2a trial, measured: blood pressure increased; human, idiopathic pulmonary fibrosis; 60 mg once daily, grade 1: “patients with adverse event” read 0%.
The “patients with adverse event” was 0% (Phase 2a trial, measured: hypertriglyceridaemia; human, idiopathic pulmonary fibrosis; all compound arms total, grade 3).
Phase 2a trial, measured: hyperuricaemia; human, idiopathic pulmonary fibrosis; 30 mg once daily, grade 3 — “patients with adverse event”: 0%.
The “patients with adverse event” was 0% (Phase 2a trial, measured: blood urea increased; human, idiopathic pulmonary fibrosis; all compound arms total, grade 2).
The “patients with adverse event” was 0% (Phase 2a trial, measured: blood glucose increased; human, idiopathic pulmonary fibrosis; 30 mg once daily, grade 2).
For Phase 2a trial, measured: hepatobiliary disorders; human, idiopathic pulmonary fibrosis; all compound arms total, grade 5: “patients with adverse event” read 0%.
For measured: prostatic calcification, maximum grade 4; idiopathic pulmonary fibrosis patients; oral, 60 mg once daily: “patients with adverse event” read 0%.
For Phase 2a trial, measured: hepatic steatosis; human, idiopathic pulmonary fibrosis; 60 mg once daily, grade 4: “patients with adverse event” read 0%.
The “patients with adverse event” was 0% (Phase 2a trial, measured: blood lactate dehydrogenase increased; human, idiopathic pulmonary fibrosis; all compound arms total, grade 4).

Set 3 — observed: kinase activity; tested at: 10 µM
SMILES: COc1cc(C(=O)N2CCC(N3CCN(C)CC3)CC2)ccc1Nc1ncc2c(n1)N(C)c1ccccc1C(=O)N2C
It gave 22 ± 14% for remaining activity (MNK2).
It gave 84 ± 11% for remaining activity (ROCK2).
For DYRK2: remaining activity read 98 ± 5%.
MAPKAP-K2 — remaining activity: 84 ± 2%.
The remaining activity was 87 ± 1% (PIM1).

Other studies, line by line
With `C[C@@H](c1cccc(C#N)c1)n1cc(Cl)cc(C(N)=O)c1=N` the inhibition was 1.07% (Translocator protein (Tspo, Rattus norvegicus, UniProt P16257); binding, radioligand binding; 10 µM).

Some of these lines once more (set 2):
The “patients with adverse event” was 0% (Phase 2a trial, measured: blood lactate dehydrogenase increased; human, idiopathic pulmonary fibrosis; all compound arms total, grade 4).
The “patients with adverse event” was 0% (Phase 2a trial, measured: blood glucose increased; human, idiopathic pulmonary fibrosis; 30 mg once daily, grade 2).
For Phase 2a trial, measured: hepatobiliary disorders; human, idiopathic pulmonary fibrosis; all compound arms total, grade 5: “patients with adverse event” read 0%.
Phase 2a trial, measured: hyperuricaemia; human, idiopathic pulmonary fibrosis; 30 mg once daily, grade 3 — “patients with adverse event”: 0%.
